# Published values pooled from the literature.
# A part holds a random share of what one study measured. Positions count from the first letter of the parent shown.

# Sample 1
# Target: CEP164, C-terminal peptide (human)
# Method: DHFR complementation, deep sequencing
# Matrix: yeast
# Setting: single substitutions, model-inferred values
# Reference: wild type
# Direction: higher = weaker binding
# Starting sequence: PDZK1, PDZ domain 2 (human); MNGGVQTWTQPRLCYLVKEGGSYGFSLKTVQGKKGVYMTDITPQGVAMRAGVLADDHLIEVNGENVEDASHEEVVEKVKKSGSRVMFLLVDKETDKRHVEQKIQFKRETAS; partner HNRVKVYRF
Substitution,binding free energy change
G45H,0.776 kcal/mol
I41D,1.5 kcal/mol
L89N,1.55 kcal/mol
V74Y,0.81 kcal/mol
G21P,-0.0671 kcal/mol
K18E,0.487 kcal/mol
E19C,0.193 kcal/mol
A69D,-0.168 kcal/mol
N65S,0.182 kcal/mol
G45S,0.373 kcal/mol
A69K,-0.15 kcal/mol
N65D,0.248 kcal/mol
N2K,-0.0557 kcal/mol
A110T,-0.115 kcal/mol
F105D,-0.145 kcal/mol
A69Y,-0.305 kcal/mol
M86R,-0.158 kcal/mol
D68H,0.00532 kcal/mol
R12M,0.671 kcal/mol
M38A,1 kcal/mol
N62I,1.24 kcal/mol
T94Y,-0.0538 kcal/mol
V5P,-0.051 kcal/mol
K96V,-0.0245 kcal/mol

# Sample 2
# Target: Fragile X messenger ribonucleoprotein 1, C-terminal low-complexity region (Fmr1, Mus musculus, UniProt P35922)
# Method: RNA Bind-n-Seq
# Form: RNA
# Matrix: in vitro
# Concentration: 200 nM
# Setting: whole 134-nt RNA, ends assumed
# Together with: 150 mM KCl
# Reference: input library
# Direction: higher = stronger binding
# All sequences stand within: GGGAGUUCUACAGUCCGACGAUC … UGGAAUUCUCGGGUGUCAAGG
Strand,log2 enrichment
UGCCUUGCAGAUACGUGGCUUUCCUGAAGCUGUUCCUGGAGACGGCGGAGAAGCACUUCAUGGUGGGCCACCGUGUCCACUACUAUGUCU,-1.34
UCCUGUGCUACACAUCGUAUGUACCGAAUCGGUUUUUUGGGGUUUUUUGGUUUUUUGGGGAAAGUAUUAUGUUACGCCGUUCGGAUCUGC,-0.197
UGUGCUACACAUCGUAUGUACCGAAUCGGGGAAAAAGGGGAAAAAAAGGGGUUUUUUUGGGGAAAGUAUUAUGUUACGCCGUUCGGAUCU,0.229
GUCCUGUGCUACACAUCGUAUGUACCGAAUCGGGUUUUUGGGUUUUUGGGUUUUUGGGGAAAGUAUUAUGUUACGCCGUUCGGAUCUGCA,0.526
AGUCCUGUGCUACACAUCGUAUGUACCGAAUCGGGCCCCGGGGCCCCGGGCCCCGGGGAAAGUAUUAUGUUACGCCGUUCGGAUCUGCAC,-0.0579
UCAAGUCCUGUGCUACACAUCGUAUGUACCGAAUCGGGCCGGGGCCGGGGCCGGGAAAGUAUUAUGUUACGCCGUUCGGAUCUGCACUUC,-0.378
UAACUUUAGAGGAGGAUCUGAUGGAUAUGGCAGUGGACGUGGAUCUGGGGAUGGCUAUAAUGGGUAUGGAGGAGGACCUGGAGGUGGCAA,0.129
AGUCCUGUGCUACACAUCGUAUGUACCGAAUCGGGGCCCCCGGCCCCCGGCCCCCGGAAAGUAUUAUGUUACGCCGUUCGGAUCUGCACU,-0.665
GCAGGAAGUAAAAACAAAUGGAAAUGCUUCGGAUAGUGGCAGGGGUGGGUGUUGCUAAGGAAAGGGUGGGAUGGGAGUGGGUAAAGAGUU,0.124
GUCCUGUGCUACACAUCGUAUGUACCGAAUCGGGGAAAGGGGUUUUUUUGGGGAGGGGAAAGUAUUAUGUUACGCCGUUCGGAUCUGCAC,0.631
UAACUUUAGAGGAGGAUCUGAUGGAUAUGGCAGUGGACGUGGAUUUGGGGAUGGCUAUAAUGGGUAUGGAGGAAGACCUGGAGGUGGCAA,0.194
GUCCUGUGCUACACAUCGUAUGUACCGAAUCGGGUUUGGGUUUUUGGGUUUUUUUGGGAAAGUAUUAUGUUACGCCGUUCGGAUCUGCAC,0.282
UCAAGUCCUGUGCUACACAUCGUAUGUACCGAAUCGGGGUUGGGGUUGGGUUGGGAAAGUAUUAUGUUACGCCGUUCGGAUCUGCACUUC,1.15
UGGGAGGUGGAUUUUGUUUAUUUUUUUAGCUCAAUUCCAGGGGUGGGAAUUUUUUUUUAAUAUGUGUCAUGAAUAAAGUUGUUUUUGAAA,0.593

# Sample 3
# Target: CCND2, cyclin fold, Cln2 fusion (human)
# Method: yeast growth competition, sequencing
# Matrix: yeast
# Setting: weak parent motif
# Reference: not given
# Direction: higher = stronger binding
# Starting sequence: ASZ1 docking peptide (human); GFGFLLFICKLTF; partner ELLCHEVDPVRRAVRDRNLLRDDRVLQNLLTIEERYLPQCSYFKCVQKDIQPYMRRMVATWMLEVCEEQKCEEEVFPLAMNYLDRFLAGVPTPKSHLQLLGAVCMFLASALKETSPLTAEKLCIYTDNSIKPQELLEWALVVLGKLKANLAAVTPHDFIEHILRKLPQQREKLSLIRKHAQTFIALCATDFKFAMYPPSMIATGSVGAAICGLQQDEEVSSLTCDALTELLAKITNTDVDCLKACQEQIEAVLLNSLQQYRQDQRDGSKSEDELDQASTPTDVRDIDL
Substitution,normalised enrichment score
GFGFLLFICALTF [K10A],0.747
GFGFLLFACKLTF [I8A],-0.368
GFAFLLFICKLTF [G3A],-0.0339
GFGFLLFICKATF [L11A],-0.444
GFGFLLAICKLTF [F7A],-0.737
GFGFLLFICKLTA [F13A],-0.0262
GFGFLAFICKLTF [L6A],-0.227

# Sample 4
# Target: Interferon regulatory factor 5, full length, phosphomimetic (IRF5, Homo sapiens, UniProt Q13568-2, residues 1-514, K96S/S451D/S453D/S456D/S462D)
# Method: protein-binding microarray
# Form: double-stranded DNA, one strand shown
# Matrix: in vitro
# Concentration: 250 nM
# Setting: 60-bp whole probe
# Together with: salmon DNA 0.4 mg/ml
# Reference: random background probes
# Direction: higher = stronger binding
# All sequences stand within: GCCTAGCAC … GTCTTGATTCGCTTGACGCTGCTG
Strand,log fluorescence [z-score]
TTAGGTCTCCTGCTGCTTTAGTGCTAG,-0.608
TTAGATTTCAGTTCTGATTAGTGCTAG,1.81
ATATATATATATACAGATATGTGCTAG,1.93
GCTTTTATCCCTGACAGAAGGTGCTAG,0.198
GACGGTTTCGACTATCGCGACGTGCTA,6.29
GACGTTTTCAGTCTCGAGACGTGCTAG,2.28
TTAGATCTCAGTATCGTTTAGTGCTAG,2.91
GACGATTTAAGTATCGAGACGTGCTAG,2.24
GGGATTTTTAGTTAGAAAAAGTGCTAG,0.113
TTAGGTCACCTACTGCTTTAGTGCTAG,-0.229
GACGATATCGGGTTTCGCGACGTGCTA,2.09
GACGATTCCAGTTTCGAGCCGTGCTAG,4.06
ATACCTTAGGTTTTCTGGTTGTGCTAG,0.488
GACGGTCTTGGTCTCGGGACGTGCTAG,-0.211
TTAGATGTCAGTATCGATTAGTGCTAG,6.72
GACGGACTACTTCTCCTGACGTGCTAG,-0.129
CTAGGTATCGACACTGGGTTAGTGCTA,1.82
GACGGTATCGGTATCGGGCCGTGCTAG,6.22
GACGGTTTCCTTATCCTGGCGTGCTAG,0.779
TTAGCTATCGGTATCGGTTAGTGCTAG,9.95
TTAGGTCTCGGTTTCGGCTAGTGCTAG,5.31
TTAGGTCTTCTTTTCCTTTAGTGCTAG,0.501
ATATGTATATATGTGTATATGTGCTAG,0.557

# Sample 5
# Target: ABI1, truncated, D143A, DHFR fusion (Arabidopsis thaliana)
# Method: DHFR PCA, deep sequencing
# Matrix: yeast
# Setting: methotrexate growth selection, single substitutions
# Together with: (+)-ABA 0.0091 µM
# Reference: wild-type fitted maximum
# Direction: higher = stronger binding
# Starting sequence: PYL1, truncated, DHFR fusion (Arabidopsis thaliana); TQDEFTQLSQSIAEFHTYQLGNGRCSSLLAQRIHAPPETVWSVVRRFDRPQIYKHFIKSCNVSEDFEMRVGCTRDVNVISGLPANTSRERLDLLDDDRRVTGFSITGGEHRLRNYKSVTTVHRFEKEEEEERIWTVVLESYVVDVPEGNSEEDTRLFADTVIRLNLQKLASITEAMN
Substitution,relative binding score [%]
G107E,14
L166H,3.06
P50Y,-9.17
Q51G,-2.93
S59K,0.381
Q7G,24.6
H34S,19.9
T120I,-8.42
G21Y,1.92
Y141I,-3.11
R90K,0.118
R155E,-6.92
V118H,4.42
N149P,0.156
S63W,-7.55
T101R,-7.12

# A few entries again (sample 2):
Strand,log2 enrichment
UGCCUUGCAGAUACGUGGCUUUCCUGAAGCUGUUCCUGGAGACGGCGGAGAAGCACUUCAUGGUGGGCCACCGUGUCCACUACUAUGUCU,-1.34
UCCUGUGCUACACAUCGUAUGUACCGAAUCGGUUUUUUGGGGUUUUUUGGUUUUUUGGGGAAAGUAUUAUGUUACGCCGUUCGGAUCUGC,-0.197
UGUGCUACACAUCGUAUGUACCGAAUCGGGGAAAAAGGGGAAAAAAAGGGGUUUUUUUGGGGAAAGUAUUAUGUUACGCCGUUCGGAUCU,0.229
GUCCUGUGCUACACAUCGUAUGUACCGAAUCGGGUUUUUGGGUUUUUGGGUUUUUGGGGAAAGUAUUAUGUUACGCCGUUCGGAUCUGCA,0.526
AGUCCUGUGCUACACAUCGUAUGUACCGAAUCGGGCCCCGGGGCCCCGGGCCCCGGGGAAAGUAUUAUGUUACGCCGUUCGGAUCUGCAC,-0.0579
UCAAGUCCUGUGCUACACAUCGUAUGUACCGAAUCGGGCCGGGGCCGGGGCCGGGAAAGUAUUAUGUUACGCCGUUCGGAUCUGCACUUC,-0.378
UAACUUUAGAGGAGGAUCUGAUGGAUAUGGCAGUGGACGUGGAUCUGGGGAUGGCUAUAAUGGGUAUGGAGGAGGACCUGGAGGUGGCAA,0.129
AGUCCUGUGCUACACAUCGUAUGUACCGAAUCGGGGCCCCCGGCCCCCGGCCCCCGGAAAGUAUUAUGUUACGCCGUUCGGAUCUGCACU,-0.665
